Measurements gathered from unrelated publications.
Numbered parts are unrelated; each lists some results of a single study.

Set 1
Target: Interferon regulatory factor 7, full length, phosphomimetic (IRF7, Homo sapiens, UniProt Q92985, residues 1-503, S471D/S472D/S475D/S476D/S477D/S483D/S484D/S487D)
Sequence of UniProt Q92985 (whole entry, unmodified, looked up): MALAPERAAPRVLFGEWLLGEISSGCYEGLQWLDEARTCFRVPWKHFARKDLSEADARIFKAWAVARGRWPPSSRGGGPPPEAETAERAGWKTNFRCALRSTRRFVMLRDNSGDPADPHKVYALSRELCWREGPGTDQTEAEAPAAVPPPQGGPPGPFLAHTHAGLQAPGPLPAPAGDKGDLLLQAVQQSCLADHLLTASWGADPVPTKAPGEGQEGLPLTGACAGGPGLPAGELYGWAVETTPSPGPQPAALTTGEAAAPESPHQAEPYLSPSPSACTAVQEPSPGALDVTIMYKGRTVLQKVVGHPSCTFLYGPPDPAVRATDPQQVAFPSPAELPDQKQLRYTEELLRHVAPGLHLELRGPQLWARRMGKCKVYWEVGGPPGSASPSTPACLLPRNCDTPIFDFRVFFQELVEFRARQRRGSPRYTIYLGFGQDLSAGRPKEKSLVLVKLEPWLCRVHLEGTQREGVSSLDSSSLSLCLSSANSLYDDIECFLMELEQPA
Method: protein-binding microarray
Molecule type: double-stranded DNA, one strand shown
Sample: in vitro
Tested at: 2200 nM top
Setting: 60-bp whole probe
Together with: salmon DNA 0.4 mg/ml
Baseline: random background probes
Direction: higher = stronger binding
Sequence | fitted relative affinity [z-score]
GCCTAGCACAGCCGAACAGCAATCGGATGGTGCTAGGTCTTGATTCGCTTGACGCTGCTG | -0.449
GCCTAGCACAGGCTTTTTTTTTTTTTTTTGTGCTAGGTCTTGATTCGCTTGACGCTGCTG | 0.266
GCCTAGCACGACGAACGGGGGTTTCGAGACGTGCTAGTCTTGATTCGCTTGACGCTGCTG | 1.94

Set 2
Target: Sal-like protein 4, full length isoform B (SALL4, Homo sapiens, UniProt Q9UJQ4-2, residues 1-616)
Method: universal PBM
Molecule type: double-stranded DNA, one strand shown
Sample: in vitro
Tested at: not given
Setting: 8-mer, flanks averaged, mean of replicates
Direction: higher = stronger binding
Target sequence (chain): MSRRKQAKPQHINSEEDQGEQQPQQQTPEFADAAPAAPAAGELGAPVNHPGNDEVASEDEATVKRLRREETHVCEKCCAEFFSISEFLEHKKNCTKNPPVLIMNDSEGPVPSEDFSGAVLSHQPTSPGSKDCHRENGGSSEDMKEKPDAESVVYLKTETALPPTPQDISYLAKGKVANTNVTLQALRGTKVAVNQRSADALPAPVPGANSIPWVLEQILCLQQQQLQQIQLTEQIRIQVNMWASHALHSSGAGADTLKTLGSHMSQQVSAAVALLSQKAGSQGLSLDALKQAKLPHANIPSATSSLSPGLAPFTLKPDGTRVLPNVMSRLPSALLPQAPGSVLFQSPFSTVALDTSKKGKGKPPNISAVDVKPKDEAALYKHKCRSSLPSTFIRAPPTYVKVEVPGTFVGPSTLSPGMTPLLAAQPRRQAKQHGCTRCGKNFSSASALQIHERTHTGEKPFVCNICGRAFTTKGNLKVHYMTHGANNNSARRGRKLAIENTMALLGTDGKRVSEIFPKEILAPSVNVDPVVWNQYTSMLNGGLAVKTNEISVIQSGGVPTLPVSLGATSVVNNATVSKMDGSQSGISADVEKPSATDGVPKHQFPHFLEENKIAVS
Sequence | E-score
CCCGGCCA | -0.389
AATGTGCC | 0.0278
TCTCGAAA | 0.00227
ATTCGTGA | 0.184

Further values, each from its own experiment
PABPC1L2 full length, GST fusion: PABPC1L2, full length, GST fusion (mouse, UniProt A0ABA7IW68)
Molecule | target | assay | system | setting | scale | quantity | value
UCCGUGA | PABPC1L2 full length, GST fusion | RNAcompete | RNA, in vitro | 20 nM, 7-mer, probes averaged, single round | baseline: mean of 7-mers, higher = stronger binding | 7-mer Z-score | -0.228
PhoQ, residues 284 288 289 292 302 303 SSTLLI | PhoP, residues 12 14 15 18 19 FWNTL (Escherichia coli, UniProt P23836) | Sort-seq, refers to: YFP reporter | E. coli | PhoQ-PhoP variant library, together with: 10 µM Mg2+ | baseline: high Mg2+ state, higher = stronger signaling | fold induction | 6.23
UGGUUAC | PABPC1L2 full length, GST fusion | RNAcompete | RNA, in vitro | 20 nM, 7-mer, probes averaged, single round | baseline: mean of 7-mers, higher = stronger binding | 7-mer Z-score | -0.228
AUAAAGU | PABPC1L2 full length, GST fusion | RNAcompete | RNA, in vitro | 20 nM, 7-mer, probes averaged, single round | baseline: mean of 7-mers, higher = stronger binding | 7-mer Z-score | 2.66

For quick reference, copied from above (further values, each from its own experiment):
Molecule | target | assay | system | setting | scale | quantity | value
UCCGUGA | PABPC1L2 full length, GST fusion | RNAcompete | RNA, in vitro | 20 nM, 7-mer, probes averaged, single round | baseline: mean of 7-mers, higher = stronger binding | 7-mer Z-score | -0.228
